Experimental data collected from several papers.
Protocols differ between the studies behind these lines. ± marks the error that the study gave.

CC1(C)C(=O)N(c2ccc(C#N)c(C(F)(F)F)c2)C(=S)N1c1ccc(C(=O)O)c(F)c1
AUC(0-inf) (human, male, plasma; oral, 160 mg, single dose, after high-fat meal): 55800 ± 13200 ng·h/mL

CC(C)C[C@H](NC(=O)[C@H](CCCCN)NC(=O)[C@H](CCC(=O)O)NC(=O)[C@H](C)NC(=O)[C@@H](NC(=O)[C@H](CCCCN)NC(=O)[C@H](CC(=O)O)NC(=O)[C@H](Cc1ccc(O)cc1)NC(=O)[C@H](Cc1ccccc1)NC(=O)[C@H](C)NC(=O)[C@H](CCCCN)NC(=O)[C@H](CC(C)C)NC(=O)[C@H](Cc1c[nH]c2ccccc12)NC(=O)[C@@H](N)CC(=O)O)C(C)C)C(=O)N[C@@H](CCCCN)C(=O)N[C@@H](CCC(=O)O)C(=O)N[C@@H](C)C(=O)N[C@@H](Cc1ccccc1)C(=O)N1CCC[C@H]1C(=O)N[C@@H](CC(=O)O)C(=O)N[C@@H](Cc1c[nH]c2ccccc12)C(=O)N[C@@H](C)C(=O)N[C@@H](CCCCN)C(=O)N[C@@H](C)C(=O)N[C@@H](C)C(=O)N[C@@H](Cc1ccc(O)cc1)C(=O)N[C@@H](CC(=O)O)C(=O)N[C@@H](CCCCN)C(=O)N[C@@H](C)C(=O)N[C@@H](C)C(=O)N[C@@H](CCC(=O)O)C(=O)N[C@@H](CCCCN)C(=O)N[C@@H](C)C(=O)N[C@@H](CCCCN)C(=O)N[C@@H](CCC(=O)O)C(=O)N[C@@H](C)C(=O)N[C@@H](C)C(=O)O
AUC(0-last) (cynomolgus monkey female, plasma; intravenous infusion, 8 mg/kg every other day, day 27): 540000 ng·h/mL

O=C(O)CC[C@H](NC(=O)O[C@@H](CCCCNC(=O)c1ccc([18F])cc1)C(=O)O)C(=O)O
tissue uptake (mouse, PC-3 PIP/flu xenografts, small intestine; 30 min): 1.89 ± 1.58 %ID/g

O=C([O-])C[N+]12CC(=O)[O][Re-2]1[O]P(=O)([O-])C2.[C-]#[O+].[C-]#[O+].[C-]#[O+] (centres unmarked)
isomer fraction at equilibrium (HPLC; aqueous solution; 1 d, pH 10, room temperature): 63%

N=C(N)NCc1ccc(C(=O)NCCCC[C@H](NC(=O)CCCCCCC(=O)NCCCC[C@H](NC(=O)N[C@@H](CCC(=O)O)C(=O)O)C(=O)O)C(=O)O)cc1[211At]
tissue uptake (SCID mouse, PC-3 xenografts, kidneys; 2 h): 87.7 ± 11 %ID/g

CCCCCCCC(=O)OC[C@H](NC(=O)[C@H](CO)NC(=O)CN)C(=O)N[C@@H](Cc1ccccc1)C(=O)N[C@@H](CC(C)C)C(=O)N[C@@H](CO)C(=O)N1CCC[C@H]1C(=O)N[C@@H](CCC(=O)O)C(=O)N[C@@H](Cc1cnc[nH]1)C(=O)N[C@@H](CCC(N)=O)C(=O)N[C@@H](CCCNC(=N)N)C(=O)N[C@H](C(=O)N[C@@H](CCC(N)=O)C(=O)N[C@@H](CCC(N)=O)C(=O)N[C@@H](CCCNC(=N)N)C(=O)N[C@@H](CCCCN)C(=O)N[C@@H](CCC(=O)O)C(=O)N[C@@H](CO)C(=O)N[C@@H](CCCCN)C(=O)N[C@@H](CCCCN)C(=O)N1CCC[C@H]1C(=O)N1CCC[C@H]1C(=O)N[C@@H](C)C(=O)N[C@@H](CCCCN)C(=O)N[C@@H](CC(C)C)C(=O)N[C@@H](CCC(N)=O)C(=O)N1CCC[C@H]1C(=O)N[C@@H](CCCNC(=N)N)C(=O)O)C(C)C
clearance (ELISA; healthy humans, plasma; intravenous infusion, 1 µg/kg/h, 210 min): 5.4 ± 2.8 mL/min/kg

CC(C)C[C@H](NC(=O)[C@H](Cc1ccccc1)NC(=O)CNC(=O)C/C=C(\F)[C@@H](N)Cc1ccc(O)cc1)C(=O)O
duration of detectable level (BALB/c mice, plasma; oral, 400 mg/kg): ≤ 30 min

COc1cc(C(=O)NCCOCCOCCOCCNC(=O)c2ccc([18F])nc2)ccc1NC(=O)C1NC(CC(C)(C)C)C(C#N)(c2ccc(Cl)cc2F)C1c1cccc(Cl)c1F (centres unmarked)
tumour-to-tissue ratio (athymic male mice, HepG2 xenograft; 4 h; relative to: tumour over blood): 3.54 ± 1.25

CN(C)C(CNC(=O)Nc1cc(C(F)(F)F)ccc1N1CCOCC1)c1ccncc1 (centres unmarked)
amylase (mouse, serum; intraperitoneal, 180 mg/kg single dose): 373 U/L

CN[C@](C)(C[18F])C(=O)O
tissue uptake (SCID mouse U87 xenograft, lung; 60 min, post injection): 1.9 ± 0.8 %ID/g

CC[C@H](C)C(=O)N1CCC(NC(=O)Nc2ccc(OC(F)(F)F)c(F)c2)CC1
subjects with injection site reaction (healthy volunteers, both sexes; oral, 8 mg, fed state): 7.1%

CCN(Cc1ccccc1)C(=O)CCc1nc(CN2CCN(C(=O)Cc3ccc(OC)c(OC)c3)CC2)no1
concentration (rat, liver; intravenous, 1 mg/kg, 15 min, single dose): 24 ng/g

COC(=O)C[C@](O)(CCCC(C)(C)OC(C)=O)C(=O)O[C@@H]1C(OC)=C[C@]23CCCN2CCc2cc4c(cc2[C@H]13)OCO4
concentration (CD1 mice, plasma; subcutaneous, 1 mg/kg, 8 h): 2.57 ng/mL

CC(=CCC(O)C(C)=Cc1csc(C)n1)CC=CC(C)C(O)C(C)C(=O)C(C)(C)C(O)CC(=O)O (centres unmarked)
AUC ratio (human, plasma; intravenous infusion, 27 mg/m2 KOS-1584, 3 h infusion, cycle 1; relative to: metabolite over KOS-1584): 10.7 ± 2.87%

CC[C@H](C)CCCCC(=O)N[C@@H](CCN)C(=O)N[C@H](C(=O)N[C@@H](CCN)C(=O)N[C@H]1CCNC(=O)[C@H]([C@@H](C)O)NC(=O)[C@H](CCN)NC(=O)[C@H](CCN)NC(=O)[C@H](CC(C)C)NC(=O)[C@@H](Cc2ccccc2)NC(=O)[C@H](CCN)NC1=O)[C@@H](C)O
urinary albumin excretion (ELISA; male CD-1 mouse, urine; subcutaneous, 25 mg/kg, 4 doses every 8 h, 24 h urine collection, nephrotoxicity): 1150 µg/24 h

C/C=C/C=C/C/C=C/CCCCCCCc1cccc(O)c1O
tissue concentration (female Kunming mice, tumour-bearing, heart; intravenous, 10 mg/kg, 8 h): 4040 ± 320 ng/g

CN1CCC[C@@H]1C(=O)N[C@@H](Cc1ccc(-c2ccccc2)cc1)B(O)O
tolerability (Pf3D7 0087/N9, NODscidIL2Rγnull mice infected with P. falciparum; oral, dose not given): not toxic

CC[C@@H]1C[C@]1(NC(=O)[C@@H]1C[C@@]2(CN1C(=O)[C@@H](NC(=O)[C@@H](NC(=O)[C@@H]1CCCCN1C(C)C)C1CCCCC1)C(C)(C)C)C(C)(C)C21CCC1)C(=O)NS(=O)(=O)N1CCCC1
subjects with adverse event (refers to: Diarrhea; healthy human; oral, 50 mg, added: ritonavir 100 mg): 0%

O=C(O)CCC(NP(=O)(O)OCCC[C@@H](NC(=O)CCC(NC(=O)c1ccc([18F])cc1)C(=O)O)C(=O)O)C(=O)O (some centres unmarked)
tumour uptake (radioactivity; mouse, CWR22Rv1 xenograft, tumour; 1 h): 1.54%

CCc1c2c(nc3ccc(OC4OC(C(=O)O)C(O)C(O)C4O)cc13)-c1cc3c(c(=O)n1C2)COC(=O)C3(O)CC (centres unmarked)
Tmax (human patients, plasma; intravenous, 42 mg/m^2 of parent drug): 6 h

CC[C@H](C)[C@H](NC(=O)[C@H](CCCCN)NC(=O)CNC(=O)[C@H](CC(C)C)NC(=O)[C@@H](NC(=O)[C@H](C)NC(=O)[C@H](CCCCN)NC(=O)CNC(=O)[C@H](C)NC(=O)CNC(=O)[C@H](CCCCN)NC(=O)[C@H](CCSC)NC(=O)[C@H](CCCCN)NC(=O)[C@@H](NC(=O)[C@H](Cc1c[nH]c2ccccc12)NC(=O)[C@H](CC(C)C)NC(=O)[C@H](CCCCN)NC(=O)[C@H](CCCCN)NC(=O)[C@H](CC(C)C)NC(=O)[C@@H](N)CC(C)C)[C@@H](C)O)C(C)C)C(=O)N[C@@H](CCCCN)C(=O)NCC(=O)N[C@@H](CC(C)C)C(=O)N[C@@H](CC(C)C)C(=O)O
Stern-Volmer constant (acrylamide quenching; DOPC:DOPG 3:1 vesicles; 2 µM, 250 µM total lipid, added: acrylamide): 1.07 ± 0.07 M⁻¹

CSCC[C@@H]1NC(=O)CCCC(=O)NCCCC[C@@H](C(N)=O)NC(=O)[C@H](CO)NC(=O)[C@H]([C@@H](C)O)NC(=O)[C@H](CO)NC(=O)[C@H](CO)NC(=O)[C@H](CC(C)C)NC(=O)[C@H](Cc2ccccc2)NC(=O)[C@H](CCC(=O)O)NC(=O)[C@H](Cc2ccccc2)NC(=O)[C@H](Cc2c[nH]c3ccccc23)NC(=O)[C@H]([C@@H](C)O)NC1=O
serum half-life (human serum; relative to: cyclic over linear peptide): 130 fold

CSCC[C@H](NC(=O)CNC(=O)[C@H](CC(=O)O)NC(=O)[C@@H](NC(=O)[C@@H](NC(=O)[C@@H](NC(=O)CNC(=O)[C@H](CCC(N)=O)NC(=O)[C@H](CCSC)NC(=O)[C@H](CC(=O)O)NC(=O)[C@H](C)NC(=O)[C@H](C)NC(=O)[C@@H](NC(=O)[C@H](CO)NC(=O)[C@@H](N)CC(C)C)[C@@H](C)O)C(C)C)C(C)C)[C@@H](C)O)C(=O)N[C@@H](C)C(=O)N[C@@H](CO)C(=O)NCC(=O)N[C@@H](CC(C)C)C(=O)N[C@@H](CC(=O)O)C(=O)N[C@@H](CCCCN)C(=O)N[C@@H](CC(=O)O)C(=O)N[C@@H](Cc1ccc(O)cc1)C(=O)N[C@@H](CC(C)C)C(=O)N[C@@H](CCCCN)C(=O)N1CCC[C@H]1C(=O)N[C@@H](CC(=O)O)C(=O)N[C@@H](CC(=O)O)C(=O)O
AUC(0-t) (human, serum; intravenous, 3.33 mg/kg, patients, infusion): 2830 ng·h/mL

CC(C)C[C@H](NC(=O)CNC(=O)[C@H](C)NC(=O)[C@H](CCCNC(=N)N)NC(=O)[C@H](Cc1c[nH]cn1)NC(=O)CNC(=O)CN)C(=O)N[C@@H](CCC(N)=O)C(=O)N[C@@H](Cc1ccccc1)C(=O)N1CCC[C@H]1C(=O)N[C@H](C(=O)NCC(=O)N[C@@H](CCCNC(=N)N)C(=O)N[C@H](C(=O)N[C@@H](Cc1c[nH]cn1)C(=O)N[C@@H](CCCNC(=N)N)C(=O)N[C@@H](CC(C)C)C(=O)N[C@@H](CC(C)C)C(=O)N[C@@H](CCCNC(=N)N)C(=O)N[C@@H](CCCCN)C(N)=O)C(C)C)C(C)C
HD10 (haemolysis; human red blood cells; 1 h): 64 µM

CC(C)[C@H](NC(=O)CNC(=O)[C@H](CCC(N)=O)NC(=O)[C@H](C)N)C(=O)O
subjects with any adverse event (human; 30 mg/kg single dose): 16.7%

COc1ccc(C)cc1NC(=O)OC1CC2CCCC(C1)N2Cc1ccc(CC[18F])cc1 (centres unmarked)
tracer uptake (mouse, fat; 5 min, tumour-bearing): 2.33 %ID/g

CN(C)c1ccc(C(=O)NCCCCN2CCN(c3ccccc3O[11CH3])CC2)cc1
uptake ratio (male Sprague Dawley rat, fat; iv, dose not given, added: cyclosporin A pretreatment; relative to: cyclosporin A over untreated): 0.58

O=c1c(Br)c2oc3c(CN(Cc4ccccn4)Cc4ccccn4)c(O)ccc3nc-2c2ccccc12
pKa (fluorescence; first pKa): 5.08

CCCCCCCCCCCCCC(=O)N[C@@H](Cc1ccccc1)C(=O)N[C@@H](CCC(=O)O)C(=O)N[C@@H](CCC(=O)O)C(=O)N[C@@H](CCC(=O)O)C(=O)N[C@@H](CCCNC(=N)N)C(=O)N[C@@H](CC(C)C)C(=O)O
storage stability (lyophilized powder; 22 °C): ≥ 2 weeks

Some of these lines once more:
COc1cc(C(=O)NCCOCCOCCOCCNC(=O)c2ccc([18F])nc2)ccc1NC(=O)C1NC(CC(C)(C)C)C(C#N)(c2ccc(Cl)cc2F)C1c1cccc(Cl)c1F (centres unmarked)
tumour-to-tissue ratio (athymic male mice, HepG2 xenograft; 4 h; relative to: tumour over blood): 3.54 ± 1.25

CN(C)C(CNC(=O)Nc1cc(C(F)(F)F)ccc1N1CCOCC1)c1ccncc1 (centres unmarked)
amylase (mouse, serum; intraperitoneal, 180 mg/kg single dose): 373 U/L

CN[C@](C)(C[18F])C(=O)O
tissue uptake (SCID mouse U87 xenograft, lung; 60 min, post injection): 1.9 ± 0.8 %ID/g

CC[C@H](C)C(=O)N1CCC(NC(=O)Nc2ccc(OC(F)(F)F)c(F)c2)CC1
subjects with injection site reaction (healthy volunteers, both sexes; oral, 8 mg, fed state): 7.1%

CCN(Cc1ccccc1)C(=O)CCc1nc(CN2CCN(C(=O)Cc3ccc(OC)c(OC)c3)CC2)no1
concentration (rat, liver; intravenous, 1 mg/kg, 15 min, single dose): 24 ng/g
